# Assay results of several laboratories.
# Parts stem from different laboratories: compare values within a part only. Changes are numbered by the printed parent chain.

# Set 1
# Target: Phosphate system positive regulatory protein PHO4, full length, GST-tagged (PHO4, Saccharomyces cerevisiae, UniProt P07270, residues 1-312)
# Technique: competition protein-binding microarray
# Form: double-stranded DNA, one strand shown
# Sample: in vitro
# Concentration: 2 µM
# Notes: whole 60-bp probe, lowest competitor level
# Together with: Cbf1 competitor, 0.05 µM
# Direction: higher = stronger binding
# Shared flanks, not repeated: … GTCTTGATTCGCTTGACGCTGCTG
# Residues (chain): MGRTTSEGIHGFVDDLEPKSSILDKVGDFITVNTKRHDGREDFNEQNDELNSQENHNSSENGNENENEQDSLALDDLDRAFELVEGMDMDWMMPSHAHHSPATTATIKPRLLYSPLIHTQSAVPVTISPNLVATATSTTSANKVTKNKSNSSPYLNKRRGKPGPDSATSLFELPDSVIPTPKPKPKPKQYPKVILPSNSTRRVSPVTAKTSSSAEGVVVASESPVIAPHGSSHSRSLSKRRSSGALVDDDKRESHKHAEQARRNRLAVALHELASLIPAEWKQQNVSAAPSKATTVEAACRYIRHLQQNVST
Sequence,fluorescence intensity [a.u.]
CAGAGGAACGAGATAAACGTGCGATCCCTTCAATAA,12800
ACACAGCCGTACCTACACGTGCCAGTTATCTTGATA,17500
CATACCCAACCTTGTCACCACACTTAAGATATTTGT,5370
AGAAACAACACTACTGCTGTGACAGTTCAAATCGGT,3950
TGCAAGGGTTATGGGCATGCGCATCTATGTGGCGTT,9180
TCAGAGGTATTCTCTCATGTGGTGAAGTCCATCAAT,6910
ACTACTAGCCCTCCACACGTTCGAGGCCAGGTTGAT,11600
AAAGCGGTAATTTTTCACGTGCCGTCAAATATCTAT,13300
CTTCTGTAAATTTGTAGTGTGGGTGGACGCGCCCCG,5290
AAAGCAGATGGGGATCGCGTGCTAACAAATTACTCG,10100
GTCTTGTCTCATTGCATCGTGGGTGTCCCCACTTCA,11300
GCGCTCTTGTTCATGTTCGTGATGGTGTCCAGCCAT,4690
AAGCATGGTGCCGTTCACATGTCCACCTACTTGAAG,6930
CGTCCTAGTGATTGTCACTAAACTTCCATGAGGAAG,4130

# Set 2
# Target: Sal-like protein 4, full length isoform A (SALL4, Homo sapiens, UniProt Q9UJQ4, residues 1-1053)
# Chain of UniProt Q9UJQ4 (whole entry, looked up): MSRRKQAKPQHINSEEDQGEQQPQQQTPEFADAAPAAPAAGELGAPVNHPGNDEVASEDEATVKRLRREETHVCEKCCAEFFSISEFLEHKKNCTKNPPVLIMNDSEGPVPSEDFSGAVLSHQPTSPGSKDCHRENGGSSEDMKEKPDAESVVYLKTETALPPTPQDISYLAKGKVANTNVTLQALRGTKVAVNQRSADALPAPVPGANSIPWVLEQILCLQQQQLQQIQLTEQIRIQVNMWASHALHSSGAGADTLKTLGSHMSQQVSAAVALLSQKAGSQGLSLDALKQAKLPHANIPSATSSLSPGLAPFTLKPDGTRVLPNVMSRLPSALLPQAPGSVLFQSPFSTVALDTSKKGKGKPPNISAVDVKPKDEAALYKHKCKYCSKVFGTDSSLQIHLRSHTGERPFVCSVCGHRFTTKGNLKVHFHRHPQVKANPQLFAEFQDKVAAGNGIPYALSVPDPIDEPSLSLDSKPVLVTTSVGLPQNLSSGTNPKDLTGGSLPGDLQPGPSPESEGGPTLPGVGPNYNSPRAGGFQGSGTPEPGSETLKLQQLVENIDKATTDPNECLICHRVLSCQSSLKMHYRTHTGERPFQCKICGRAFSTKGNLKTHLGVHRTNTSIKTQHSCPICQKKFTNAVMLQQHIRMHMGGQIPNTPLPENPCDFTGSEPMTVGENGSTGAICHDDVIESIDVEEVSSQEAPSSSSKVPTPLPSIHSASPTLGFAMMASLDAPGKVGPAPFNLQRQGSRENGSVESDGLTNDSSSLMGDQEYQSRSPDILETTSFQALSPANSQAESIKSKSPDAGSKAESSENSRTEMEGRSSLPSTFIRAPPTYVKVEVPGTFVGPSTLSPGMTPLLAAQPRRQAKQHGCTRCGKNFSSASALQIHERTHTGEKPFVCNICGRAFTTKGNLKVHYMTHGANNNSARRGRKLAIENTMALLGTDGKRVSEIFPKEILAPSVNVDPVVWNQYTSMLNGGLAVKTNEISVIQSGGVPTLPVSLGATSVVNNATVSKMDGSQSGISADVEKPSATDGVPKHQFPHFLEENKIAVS
# Technique: universal PBM
# Form: double-stranded DNA, one strand shown
# Sample: in vitro
# Concentration: 600 nM
# Notes: 8-mer, flanks averaged, mean of replicates
# Direction: higher = stronger binding
Sequence,E-score
GAGGCCTA,-0.217
GAACGGCC,-0.223
AACCTGGG,-0.3
ACGTGCCA,-0.14
CGAAGAAG,-0.0402
TCGCAAAA,0.147
AGTATCCG,-0.0606
GTGCGCAA,-0.156
GACTCGCA,-0.0329
CTTCCAAC,-0.0575
ATGCTGTA,0.178
AGGCGGAT,-0.0768
CCGACCCG,-0.363
ACTGGATA,0.158
AACAGTCA,0.0401
CCCGCCTC,-0.304
AAGGATTA,0.251
CGCTCAAG,-0.0975
CTTCAAGC,-0.109
ACCAGAAC,-0.0982
GATAAACA,0.24
AACCTGGT,-0.187
AAAGGGTG,-0.0484
AGTCACTA,0.0472
CACTCTCC,0.0619

# Set 3
# Target: MAFG, bZIP domain (human)
# Technique: DHFR protein complementation
# Sample: yeast
# Notes: single substitutions, most at no-binding floor
# Relative to: wild-type JUN-FOS pair
# Direction: higher = stronger binding
# Starting sequence: JUN, bZIP domain (human); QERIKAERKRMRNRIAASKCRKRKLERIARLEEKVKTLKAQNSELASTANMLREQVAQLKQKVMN; partner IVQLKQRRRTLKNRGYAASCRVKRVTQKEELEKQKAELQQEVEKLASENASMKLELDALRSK
Change,binding fitness [natural log]
L59R,-1.38
T37D,-1.46
N42A,-1.19
A29Y,-1.42
T48C,-1.48
L38T,-1.51
Q55I,-1.31
E33N,-1.57
E54T,-1.48
S47H,-1.29

# Set 4
# Target: Prothrombin, mature alpha-thrombin (F2, Homo sapiens, UniProt P00734)
# Technique: aptamer microarray, sandwich
# Form: DNA with 2'F-ANA
# Sample: in vitro
# Concentration: 200 nM
# Notes: whole 15-mer aptamer, many near background
# Together with: Cy3 exosite-II aptamer, 400 nM
# Direction: higher = stronger binding
# Sequence: GGTTGGTGTGGTTGG
Modification,mean fluorescence intensity [a.u.]
2'F-ANA at 1 2 4 7 8 13 14 15,57.3
2'F-ANA at 2 3 4 6 9 10 11 12 13,188
2'F-ANA at 1 4 5 7 12 14,45.2
2'F-ANA at 1 2 3 7 8 10 15,75.3
2'F-ANA at 1 2 3 7 8 10 12 14 15,54.6
2'F-ANA at 1 2 4 6 8 9 10 11 12 14 15,64.7
2'F-ANA at 1 2 3 4 6 8 9 10 12 13 15,65.7
2'F-ANA at 2 3 4 5 7 9 10 11 12 14,55.7
2'F-ANA at 4 10 12 15,117
2'F-ANA at 3 5 6 10 11 12 14 15,48.7
2'F-ANA at 2 5 6 9 10 11 13 14,47
2'F-ANA at 3 4 5 7 9 10 11 12 14,96.2
2'F-ANA at 2 3 4 5 6 7 10 11 12 13 14 15,49
2'F-ANA at 5 8 9 11 13,60.1
2'F-ANA at 1 2 3 5 6 8 9 11 14 15,47.7
2'F-ANA at 1 2 6 7 8 9 10 11 12,63.8

# Set 5
# Target: RING finger protein unkempt homolog, zinc fingers 1-6, GST-SBP tag (UNK, Homo sapiens, UniProt Q9C0B0, residues 30-357)
# Chain of UniProt Q9C0B0 (30-357, looked up): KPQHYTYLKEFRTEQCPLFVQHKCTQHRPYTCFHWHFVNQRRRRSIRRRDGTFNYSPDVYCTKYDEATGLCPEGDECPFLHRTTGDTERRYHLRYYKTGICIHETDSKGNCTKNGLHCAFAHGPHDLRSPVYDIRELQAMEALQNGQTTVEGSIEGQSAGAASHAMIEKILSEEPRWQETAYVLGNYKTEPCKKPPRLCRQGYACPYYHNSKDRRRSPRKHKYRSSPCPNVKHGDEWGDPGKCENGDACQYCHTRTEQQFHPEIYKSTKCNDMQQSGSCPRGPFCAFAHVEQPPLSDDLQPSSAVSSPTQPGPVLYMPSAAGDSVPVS
# Technique: RNA Bind-n-Seq
# Form: RNA
# Sample: in vitro
# Concentration: not given
# Notes: RNA with constant flanks, human and mouse sites, ends assumed
# Relative to: input RNA pool
# Direction: higher = stronger binding
# Shared flanks, not repeated: GGGAGUUCUACAGUCCGACGAUC … CAACAGAGGAUUGAGCAUCA
Sequence,bound/input enrichment
GGUGGUACCCUAGACCUGACCUUGAUUCGUGCUCGCCUCCAAGAGAAGCUGUCACCUCCUUAUAGCUCCCCCCAGGAGUUUGCUCAAGAUGUGGGCCGCAUGUUCAAACAGUUCAACAAG,0.379 ratio
CGCGCCAUUCAGGGAGCAACAUCACACCAUUUAGGCCAGAAUUUCUCCAAAAUGUGUGAAAUAGUUUUUGAAGAUCCCAAGACACCAGGAGAAAAGCAGUUUGCAUACCAGUGCUCCUGG,0.402 ratio
CUUCAGAAACAUGUAGAGGAUUUGUUGACAAAAUUAAAAGAGGCCAAAGAACAGCAGGCCAGUAUGGAAGAGAAAUUCCACAAUGAGUUAAAUGCUCACAUAAAGCUCUCUAAUCUCUAC,0.101 ratio
ACGAACGAGGAGGUAUCGGGAGACCUGGAUAAUCUAGAUGCCAUUCUUGGAGAUUUGACCAGUUCUGACUUCUACAACAAUCCUACAAAUGGCGGUCACCCAGGGGCCAAACAGCAGAUG,0.203 ratio
GACCAGACUCCAAAAUGGAAACCAGCCAAUCUAAAAGAUGUUACGGAUGAAGACUUGAAUAGUUACUUUAAAUCUCUGGGAAGCAGUGAUUUGAAAUUCUAAAGUUUAUUUUGGAGCAAA,0.237 ratio
GAGAUGCUAGCACACAGGGCAGUCCUGGCUUGCUGUAGCCCCUAUCUAUUUGAAAUCUUCAAUAGUGACAGUGACCCUCAUGGAGUUUCUCAUGUGAAGUUGGAUGAUCUCAAUCCAGAA,0.349 ratio
UCACUUCAAGGGUACCUGAAGCGAAUUGGCACCAAAGCAGCAGCUGUAUUGCCGCAGUUCUAGCUUCACCUUCACGAUGUUUCCCUUGGUCAAAAGCGCACUAAAUCGUCUCCAAGUUCG,0.102 ratio
GGUCUUCUUUUUUUUAUGUCGGAAUAUGAAGCAACAAAUUUAUUGAUCCGAGCUCUGUGUCACUUUUAUGAUCAAGAUGAGGAGGAAGGUCUCCAAUCUGAUGGUGUUAUUGAUGAUGCA,0.823 ratio
GAGAAUGGCUCUCUUCAACUUGGCGCUGAAGCUGUGGAAGGUGGUAGACAUCAGAAGGGGUUAGGCCGUGCAGUCUUUGAGCUGGAAAAUGGAGAGGCAGAGAUCUACGCUGACCUGUCA,0.157 ratio
UGUGAAAAGCAGGCUUUGUUUGCUUUAUGCAAGUCUGUGAAGGAAAACAGACUAGAACCUCAUCUUGUGAAAAAGGUUUUAGAGAAAGUCUCCGAAUCGUUUGGAUGUAGAAGUUUAGAA,0.876 ratio
UGGACUUUAAAAGCAUUGAUGAUGAAGUAGUGGAGCAGAGAUCUGGUUCCUCAACACCUCAGCGUUCCUGUUCUGCUGCUGGCUUACACAGACCAAGAUCAAGUUUUGAUUCCACAACUG,0.109 ratio

# Set 6
# Target: CCNA1, cyclin fold, Cln2 fusion (human)
# Technique: yeast growth competition, sequencing
# Sample: yeast
# Notes: weak parent motif
# Relative to: not given
# Direction: higher = stronger binding
# Starting sequence: CDC25A docking peptide (human); PPHRRRLLFACSP; partner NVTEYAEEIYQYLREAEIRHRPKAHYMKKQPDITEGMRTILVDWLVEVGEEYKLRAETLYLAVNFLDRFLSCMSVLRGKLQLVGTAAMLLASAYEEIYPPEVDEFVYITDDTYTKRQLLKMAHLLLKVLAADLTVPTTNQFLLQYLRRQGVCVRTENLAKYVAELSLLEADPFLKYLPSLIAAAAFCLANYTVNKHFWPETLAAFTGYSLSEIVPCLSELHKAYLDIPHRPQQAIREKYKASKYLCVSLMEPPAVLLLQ
Change,normalised enrichment score
R6M,0.367
F9D,0.0507
R6I,-0.168
C11D,0.103
P13I,0.265
P2H,0.295
R5Y,0.073
P1H,0.287
R5K,0.415
A10H,0.29
C11H,0.348
R6K,0.241
A10Y,0.374
A10I,-0.0126

# Other studies, line by line
Substance,target,assay,system,setting,how to read,quantity,value
"PhoQ, residues 284 288 289 292 302 303 SLKLQV","PhoP, residues 12 14 15 18 19 AQALL (Escherichia coli, UniProt P23836)","Sort-seq, item: YFP reporter",E. coli,"PhoQ-PhoP variant library, together with: 10 µM Mg2+","relative to: high Mg2+ state, higher = stronger signaling",fold induction,11.2

# A few entries again (set 6):
Change,normalised enrichment score
R6I,-0.168
C11D,0.103
P13I,0.265
P2H,0.295
R5Y,0.073
P1H,0.287
R5K,0.415
A10H,0.29
C11H,0.348
